# Experimental data gathered from unrelated publications.
# Values joined by “and” are separate records of one study, mostly repeats; a detail may differ. Numbers after ± are the reported error.
SMILES,test,system,setting,scale,measurement,value
CN1Cc2cc(Cl)ccc2-n2c(nnc2C2CCN(c3cccc(F)n3)CC2)C1,mass spectrometry,"male Sprague-Dawley rat, brain","intravenous, 0.03 mg/kg, 1 h",,concentration,1.12 ng/mL
CC[C@H](C)[C@H](NC(=O)[C@H](CCCCN)NC(=O)CNC(=O)[C@H](CC(C)C)NC(=O)[C@H](Cc1ccccc1)NC(=O)[C@H](CCCCN)NC(=O)[C@H](CO)NC(=O)[C@H](Cc1ccccc1)NC(=O)[C@H](Cc1c[nH]c2ccccc12)NC(=O)[C@H](CCC(N)=O)NC(=O)[C@@H](NC(=O)[C@H](Cc1ccccc1)NC(=O)CCCCCNC(=O)CN1CCN(CC(=O)O)CCN(CC(=O)O)CCN(CC(=O)O)CC1)C(C)C)C(=O)N[C@@H](CCC(=O)O)C(=O)N1CCC[C@H]1C(=O)N[C@@H](CC(=O)O)C(=O)N[C@H](C(=O)N[C@@H](CO)C(=O)N[C@@H](CCC(N)=O)C(=O)N[C@H](C(=O)N[C@@H](CCC(N)=O)C(=O)N[C@@H](CC(=O)O)C(=O)N1CCC[C@H]1C(=O)N[C@@H](CC(N)=O)C(=O)N[C@@H](CC(=O)O)C(=O)N[C@@H](CCC(N)=O)C(=O)N[C@@H](Cc1ccc(O)cc1)C(=O)N[C@@H](CCC(=O)O)C(=O)N1CCC[C@H]1C(=O)N[C@@H](Cc1ccccc1)C(=O)O)C(C)C)C(C)C [copper-64 labelled],,"C57BL/6 male mouse, tumour-naive, bone",0.5 h,,tissue uptake,1.86 ± 0.4 %ID/g
O=C(CN1CCN(CC(=O)NCP(=O)([O-])[O-])CCN(CC(=O)NCP(=O)([O-])[O-])CCN(CC(=O)NCP(=O)([O-])[O-])CC1)NCP(=O)([O-])[O-].[Gd+3],,"Sprague-Dawley rats, blood","intravenous, 35 µmol/kg, two-compartment model, added: GdDTPA 68 µmol/kg co-injected",,distribution half-life alpha,3.37 min
CSCC[C@H](NC(=O)CNC(=O)[C@H](CCCCN)NC(=O)[C@H](CC(C)C)NC(=O)[C@@H]1CCCN1C(=O)[C@H](CO)NC(=O)[C@H](Cc1c[nH]cn1)NC(=O)[C@H](Cc1c[nH]c2ccccc12)NC(=O)[C@H](CCCNC(=N)N)NC(=O)[C@H](CC(C)C)NC(=O)[C@H](CCCNC(=N)N)NC(=O)[C@H](Cc1c[nH]c2ccccc12)NC(=O)[C@H](CS)NC(=O)CCCCCNC(=O)CN1CCN(CC(=O)O)CCN(CC(=O)O)CCN(CC(=O)O)CC1)C(=O)O [copper-64 labelled],ex vivo biodistribution,"BALB/c nude mice, ovaries","intravenous, dose not given, 1 h, Huh-7 tumour-bearing",,tissue uptake,1.58 %ID/g
O=C1NC2(CC2)COc2ncc(F)cc2[C@H]2COCCN2c2ccn3ncc1c3n2,,"Sprague-Dawley rat, male, adrenals","oral, 10 mg/kg/day, 4 weeks dosing, end of recovery",,organ-to-brain weight ratio,2.92 ± 0.44%
CC(C)[C@@H]1NC(=O)CNC(=O)[C@H](CC(N)=O)NC(=O)[C@H](CCCNC(=N)N)NC(=O)[C@H](Cc2ccc(O)cc2)NC(=O)[C@H](C(C)C)NC(=O)[C@@H](NC(=O)[C@@H](NC(=O)[C@H](CC(N)=O)NC(=O)[C@H](Cc2c[nH]c3ccccc23)NC(=O)[C@H](C)NC(=O)[C@H](Cc2ccccc2)NC(=O)CNC(=O)[C@H](CCCCN)NC(=O)[C@H](Cc2ccccc2)NC(=O)[C@H](Cc2ccccc2)NC(=O)[C@H](CCCCN)NC(=O)OCC2c3ccccc3-c3ccccc32)C(C)C)CSSC[C@@H](C(=O)N[C@@H](Cc2c[nH]cn2)C(=O)N[C@@H](CCCNC(=N)N)C(=O)N[C@@H](CCCNC(=N)N)C(=O)N[C@@H](C)C(=O)N[C@@H](CC(N)=O)C(N)=O)NC(=O)[C@H](C(C)C)NC(=O)[C@H](CCCNC(=N)N)NC1=O,HPLC,trypsin buffer,"1.00 h, 37 °C, added: trypsin 1 % w/v",,peptide remaining,58.4% and 59.3% and 62.2%
CSCC[C@H](N)C(=O)N[C@@H](C)C(=O)N[C@@H](Cc1c[nH]c2ccccc12)C(=O)N[C@@H](Cc1c[nH]cn1)C(=O)N[C@@H](CC(=O)O)C(=O)N[C@@H](CC(=O)O)C(=O)N[C@@H](CCC(=O)O)C(=O)N[C@@H](CCC(=O)O)C(=O)N[C@@H](Cc1ccccc1)C(=O)N[C@@H](C)C(=O)N[C@@H](CCCNC(=N)N)C(=O)N[C@@H](CCCNC(=N)N)C(=O)N[C@@H](CCCNC(=N)N)C(=O)N[C@@H](CCCNC(=N)N)C(=O)NCCCCCC(=O)NCCCCC(NC(=O)CCCCCNC(=O)[C@H](CCCNC(=N)N)NC(=O)[C@H](CCCNC(=N)N)NC(=O)[C@H](CCCNC(=N)N)NC(=O)[C@H](CCCNC(=N)N)NC(=O)[C@H](C)NC(=O)[C@H](Cc1ccccc1)NC(=O)[C@H](CCC(=O)O)NC(=O)[C@H](CCC(=O)O)NC(=O)[C@H](CC(=O)O)NC(=O)[C@H](CC(=O)O)NC(=O)[C@H](Cc1c[nH]cn1)NC(=O)[C@H](Cc1c[nH]c2ccccc12)NC(=O)[C@H](C)NC(=O)[C@@H](N)CCSC)C(=O)NCCCCC(NC(=O)C(CCCCNC(=O)CCCCCNC(=O)[C@H](CCCNC(=N)N)NC(=O)[C@H](CCCNC(=N)N)NC(=O)[C@H](CCCNC(=N)N)NC(=O)[C@H](CCCNC(=N)N)NC(=O)[C@H](C)NC(=O)[C@H](Cc1ccccc1)NC(=O)[C@H](CCC(=O)O)NC(=O)[C@H](CCC(=O)O)NC(=O)[C@H](CC(=O)O)NC(=O)[C@H](CC(=O)O)NC(=O)[C@H](Cc1c[nH]cn1)NC(=O)[C@H](Cc1c[nH]c2ccccc12)NC(=O)[C@H](C)NC(=O)[C@@H](N)CCSC)NC(=O)CCCCCNC(=O)[C@H](CCCNC(=N)N)NC(=O)[C@H](CCCNC(=N)N)NC(=O)[C@H](CCCNC(=N)N)NC(=O)[C@H](CCCNC(=N)N)NC(=O)[C@H](C)NC(=O)[C@H](Cc1ccccc1)NC(=O)[C@H](CCC(=O)O)NC(=O)[C@H](CCC(=O)O)NC(=O)[C@H](CC(=O)O)NC(=O)[C@H](CC(=O)O)NC(=O)[C@H](Cc1c[nH]cn1)NC(=O)[C@H](Cc1c[nH]c2ccccc12)NC(=O)[C@H](C)NC(=O)[C@@H](N)CCSC)C(N)=O (some centres unmarked),,"C57BL/6 mouse female, brain","dose not given, 3 h",reference: total,tissue distribution,0.48% and 0.61% and 0.46%
C[C@H](O)[C@@H](NC(=O)[C@H]1CCCN1C(=O)[C@@H](CCCCN)NC(=O)[C@@H](CO)NC(=O)[C@@H](Cc1ccc(O)cc1)NC(=O)[C@@H](CC(N)=O)NC(=O)CCOCCOCCOCCNC(=O)CN1CCN(CC(=O)O)CCN(CC(=O)O)CCN(CC(=O)O)CC1)C(=O)N[C@H](CC(=O)O)C(=O)N[C@H](CCCNC(=N)N)C(=O)N[C@H](CCC(N)=O)C(=O)N[C@H](Cc1ccc(O)cc1)C(=O)N[C@H](Cc1c[nH]cn1)C(=O)N[C@H](Cc1ccccc1)C(N)=O [copper-64 labelled],ex vivo gamma counting,"C57BL/6J mouse, normal, small intestine","intravenous, 1.85 MBq, 80 min",,tissue uptake,0.82 ± 0.1 %ID/g
C=Cc1c(C)c2cc3nc(c(CC(=O)[O-])c4[n-]c(cc5nc(cc1[n-]2)C(C)=C5CC)c(C)c4C(=O)[O-])C(CCC(=O)[O-])C3C.[Cu+2].[Na+].[Na+].[Na+] (centres unmarked),,Wistar rat,"oral, 5000 mg/kg, acute toxicity",reference: untreated,body weight,no effect
CCc1nn(C)c2nc(-c3ccc(C(=O)O)cc3)nc(NCc3ccccc3)c12,,NSG mice,"dose not given, day 4",,body weight,23.3 g and 20.6 g and 20.8 g and 22.2 g
O=C(CN1C(=O)C2(CCN(C(=O)c3ccc4[nH]ncc4c3)CC2)c2c(Br)cccc21)NCC(F)(F)F,,mouse liver microsomes,,,CLint,30 µL/min/mg protein
C#Cc1c(F)ccc2cc(O)cc(-c3ncc4c(N5CC6CCC(C5)N6C(=O)OC(C)OC(=O)CC5CCCC5)nc(OC[C@@]56CCCN5C[C@H](F)C6)nc4c3F)c12 (some centres unmarked),item: prodrug,mouse whole blood,1 µM,,t1/2,7.45 min
CC(C)(CCCC/C=C/CCCCCC(C)(C)C(=O)O)C(=O)O,,"beagle dog, both sexes","oral, dose not given, 24 h",,plasma concentration,6900 ng/mL
CC(C)C[C@@H](NC(=O)[C@@H](CCCNC(=N)N)NC(=O)[C@@H](Cc1c[nH]cn1)NC(=O)[C@@H](Cc1c[nH]c2ccccc12)NC(=O)[C@@H](Cc1c[nH]cn1)NC(=O)[C@@H](Cc1ccccc1)NC(=O)[C@H](NC(=O)[C@@H](Cc1ccc(O)cc1)NC(=O)CNC(=O)CNC(=O)CCOCCOCCOCCNC(=O)CN1CCN(CC(=O)O)CCN(CC(=O)O)CC1)[C@H](C)O)C(=O)N[C@H](CC(N)=O)C(=O)N1CCC[C@@H]1C(=O)O [gallium-68 labelled],,"C57BL/6 mice, male","intravenous, 1.85 MBq, 30 min",reference: tumour over lung,tissue ratio,2.37 ± 0.39
